Published values gathered from unrelated publications.
Lines come from different studies, so protocols differ. Numbers after ± are the reported error.
Organism: Escherichia coli
Temperature: 37 °C

`CC[C@H](C)[C@H](NC(=O)[C@H](CC(=O)O)NC(=O)[C@H](Cc1ccccc1)NC(=O)[C@H](CC(C)C)NC(=O)CN)C(=O)N[C@H](C(=O)N[C@@H](CCCCN)C(=O)N[C@@H](CCCCN)C(=O)N[C@H](C(=O)N[C@H](C(=O)NCC(=O)N[C@@H](C)C(=O)N[C@@H](CC(C)C)C(=O)NCC(N)=O)C(C)C)C(C)C)C(C)C` gave an MIC of over 23 µM (ATCC 25922, CAMHB; 18 h).
`CC(C)C[C@H](NC(=O)[C@H](CCCCN)NC(=O)[C@H](Cc1c[nH]c2ccccc12)NC(=O)[C@H](CCCCN)NC(=O)[C@H](CC(C)C)NC(=O)[C@H](Cc1c[nH]c2ccccc12)NC(=O)[C@H](CC(C)C)NC(=O)[C@H](CCCCN)NC(=O)[C@H](CC(C)C)NC(=O)[C@H](CCCCN)NC(=O)[C@H](CCCCN)NC(=O)[C@@H](N)Cc1c[nH]c2ccccc12)C(=O)N[C@@H](Cc1c[nH]c2ccccc12)C(N)=O` has an MIC of 100 µg/mL (broth microdilution; ATCC 25922, LB medium; 16 to 20 h).
With `CC[C@H](C)[C@H](NC(=O)[C@H](Cc1ccc(O)cc1)NC(=O)[C@@H](NC(=O)[C@@H]1CCCN1C(=O)[C@H](CCCNC(=N)N)NC(=O)[C@H](CC(N)=O)NC(=O)[C@H](CC(N)=O)NC(=O)CN)C(C)C)C(=O)N1CCC[C@H]1C(=O)N[C@@H](CCC(N)=O)C(=O)N1CCC[C@H]1C(=O)N[C@@H](CCCNC(=N)N)C(=O)N1CCC[C@H]1C(=O)N1CCC[C@H]1C(=O)N[C@@H](Cc1c[nH]cn1)C(=O)N1CCC[C@H]1C(=O)N[C@@H](CCCNC(=N)N)C(=O)N[C@@H](CC(C)C)C(N)=O` the MIC was 0.1 µM (bacterial growth; DH5α).
`CC[C@H](C)[C@H](N)C(=O)N[C@H](C(=O)N[C@@H](CCCCN)C(=O)N[C@@H](CCCNC(=N)N)C(=O)N[C@H](C(=O)N[C@@H](CC(C)C)C(=O)N[C@H](C(=O)N[C@@H](CCC(N)=O)C(=O)N[C@@H](CC(C)C)C(=O)N[C@@H](CCCCN)C(=O)N[C@@H](CCCCN)C(=O)N[C@@H](CC(C)C)C(=O)N[C@@H](CC(C)C)C(N)=O)[C@@H](C)CC)[C@@H](C)CC)[C@@H](C)CC` gave an MIC of 25 to 50 µg/mL (broth microdilution; ATCC 25922, LB medium; 16 to 20 h).
`CC(C)C[C@H](NC(=O)[C@H](CCCNC(=N)N)NC(=O)[C@@H]1CCCN1C(=O)[C@H](CCCNC(=N)N)NC(=O)[C@@H]1CCCN1C(=O)[C@@H]1CCCN1C(=O)[C@H](CCCNC(=N)N)NC(=O)[C@@H]1CCCN1C(=O)[C@H](CCC(N)=O)NC(=O)[C@@H]1CCCN1C(=O)[C@H](CCCCN)NC(=O)[C@H](Cc1ccc(O)cc1)NC(=O)[C@@H](NC(=O)[C@@H]1CCCN1C(=O)[C@H](CCCCN)NC(=O)[C@H](CC(N)=O)NC(=O)[C@H](CC(N)=O)NC(=O)CN)C(C)C)C(=O)O` has an MIC of 0.096 ± 0.023 µM (broth microdilution; BW25113 parental, Mueller-Hinton broth; 18 h).
With `CC[C@H](C)[C@H](N)C(=O)N[C@@H](CC(C)C)C(=O)NCC(=O)N1CCC[C@H]1C(=O)N[C@H](C(=O)N[C@@H](CC(C)C)C(=O)NCC(=O)N[C@@H](CC(C)C)C(=O)N[C@H](C(=O)N[C@@H](CO)C(=O)N[C@@H](CC(=O)O)C(=O)N[C@H](C(=O)N[C@@H](CC(C)C)C(=O)N[C@@H](CC(=O)O)C(=O)N[C@@H](CC(=O)O)C(=O)N[C@H](C(=O)N[C@@H](CC(C)C)C(=O)NCC(=O)N[C@H](C(=O)N[C@@H](CC(C)C)C(=O)O)[C@@H](C)CC)C(C)C)[C@@H](C)O)C(C)C)C(C)C` the MIC was 90 µM (ATCC 25922; 24 h).
For `CC[C@H](C)[C@H](NC(=O)[C@H](CCCNC(=N)N)NC(=O)[C@@H](N)CCCNC(=N)N)C(=O)N[C@@H](CCCNC(=N)N)C(=O)N[C@@H](CCCCN)C(=O)N[C@@H](CCCNC(=N)N)C(=O)N1CCC[C@H]1C(=O)N1CCC[C@H]1C(=O)N[C@@H](CCCNC(=N)N)C(=O)N[C@@H](CC(C)C)C(=O)N1CCC[C@H]1C(=O)N[C@@H](CCCNC(=N)N)C(=O)N1CCC[C@H]1C(=O)N[C@@H](CCCNC(=N)N)C(=O)N1CCC[C@H]1C(=O)N[C@@H](CCCCN)C(=O)O`, the MIC was 0.06 ± 0.014 µM (JW0368 ΔsbmA; 18 h, 12.5% Mueller-Hinton broth).
`CC[C@H](C)[C@H](NC(=O)[C@H](Cc1ccccc1)NC(=O)CN)C(=O)N[C@@H](CCCCN)C(=O)N[C@H](C(=O)N[C@H](C(=O)N[C@@H](CCCNC(=N)N)C(=O)N[C@@H](CCCCN)C(=O)N[C@@H](CC(C)C)C(=O)N[C@@H](CC(C)C)C(=O)N[C@@H](CCCNC(=N)N)C(=O)N[C@@H](CC(C)C)C(=O)N[C@@H](Cc1ccccc1)C(N)=O)C(C)C)[C@@H](C)CC` gave an MIC of 1.56 µg/mL (ATCC 25922; 1 h, non-dividing cells in PBS).
The MIC of `CC[C@H](C)[C@H](NC(=O)[C@H](CO)NC(=O)[C@H](CC(C)C)NC(=O)[C@H](Cc1ccccc1)NC(=O)CN)C(=O)N[C@@H](CC(C)C)C(=O)N[C@@H](CCCCN)C(=O)N[C@@H](CCCCN)C(=O)N[C@H](C(=O)N[C@@H](CC(C)C)C(=O)N1CCC[C@H]1C(=O)N[C@@H](CCCCN)C(=O)N[C@H](C(=O)N[C@@H](CCSC)C(=O)N[C@@H](C)C(=O)N[C@@H](Cc1c[nH]cn1)C(=O)N[C@@H](CCSC)C(=O)N[C@@H](CCCCN)C(N)=O)C(C)C)C(C)C` is reported as 12.5 to 25 µM (broth microdilution; K12).
For `CC(C)C[C@H](NC(=O)[C@H](C)NC(=O)[C@H](CC(C)C)NC(=O)[C@@H](NC(=O)[C@H](CC(C)C)NC(=O)[C@H](Cc1c[nH]cn1)NC(=O)[C@H](CC(C)C)NC(=O)[C@@H](NC(=O)[C@@H](N)CO)[C@@H](C)O)C(C)C)C(=O)N[C@@H](CCCNC(=N)N)C(=O)NCC(=O)NCC(=O)O`, the MIC was over 100 µM (DH5α; ≥90% viability decrease).
The MIC of `CC(C)C[C@@H](N)C(=O)N[C@@H](C(=O)N[C@H](Cc1c[nH]c2ccccc12)C(=O)N[C@H](CCCCN)C(=O)N[C@H](CC(C)C)C(=O)N[C@H](Cc1c[nH]c2ccccc12)C(=O)N[C@H](Cc1c[nH]c2ccccc12)C(=O)N[C@H](CCCNC(=N)N)C(=O)N[C@H](CC(C)C)C(=O)N[C@H](CCCNC(=N)N)C(=O)N[C@H](Cc1c[nH]c2ccccc12)C(=O)N[C@H](CC(C)C)C(=O)N[C@H](CCCCN)C(N)=O)C(C)C` is reported as 50 µg/mL (ATCC 25922; 1 h, non-dividing cells in PBS).
`CC(C)C[C@H](N)C(=O)N[C@@H](CS)C(=O)N1CCC[C@H]1C(=O)N[C@@H](Cc1c[nH]cn1)C(=O)N[C@@H](CCCNC(=N)N)C(=O)N[C@@H](CS)C(=O)O` has an MIC of 25 µg/mL (broth microdilution; MTCC 443).
For `CC[C@H](C)[C@H](NC(=O)[C@@H]1CCCN1C(=O)[C@H](CCCNC(=N)N)NC(=O)[C@@H]1CCCN1C(=O)[C@@H]1CCCN1C(=O)[C@@H](NC(=O)[C@@H]1CCCN1C(=O)[C@H](CCCNC(=N)N)NC(=O)[C@@H]1CCCN1C(=O)[C@H](CC(C)C)NC(=O)[C@H](Cc1ccc(O)cc1)NC(=O)[C@H](CO)NC(=O)CNC(=O)[C@H](CCCCN)NC(=O)[C@H](CC(=O)O)NC(=O)[C@@H](N)C(C)C)[C@@H](C)O)C(=O)N[C@@H](Cc1ccc(O)cc1)C(=O)N[C@@H](CC(N)=O)C(=O)N[C@@H](CCCNC(=N)N)C(=O)N[C@@H](CC(N)=O)C(=O)O`, the MIC was 2.4 ± 0.499 µM (JW0368 ΔsbmA; 18 h, 12.5% Mueller-Hinton broth).
For `CC[C@H](C)[C@H](NC(=O)[C@H](CCCCN)NC(=O)CNC(=O)[C@H](CC(C)C)NC(=O)[C@@H](NC(=O)[C@H](C)NC(=O)[C@H](CCCCN)NC(=O)CNC(=O)[C@H](C)NC(=O)CNC(=O)[C@H](CCCCN)NC(=O)[C@@H](NC(=O)[C@H](CCCCN)NC(=O)[C@@H](NC(=O)[C@H](Cc1c[nH]c2ccccc12)NC(=O)[C@H](CC(C)C)NC(=O)[C@H](CCC(=O)O)NC(=O)[C@H](CCCCN)NC(=O)[C@H](CC(C)C)NC(=O)[C@@H](N)CC(C)C)[C@@H](C)O)[C@@H](C)CC)C(C)C)C(=O)N[C@@H](CCCCN)C(=O)NCC(=O)N[C@@H](CC(C)C)C(=O)N[C@@H](CC(C)C)C(=O)O`, the MIC was over 25 µM (broth microdilution; K12).
With `CC[C@H](C)[C@H](NC(=O)[C@H](CCCNC(=N)N)NC(=O)[C@@H](N)CCCNC(=N)N)C(=O)N[C@@H](CCCNC(=N)N)C(=O)N1CCC[C@H]1C(=O)N[C@@H](CCCNC(=N)N)C(=O)N1CCC[C@H]1C(=O)N1CCC[C@H]1C(=O)N[C@@H](CCCNC(=N)N)C(=O)N[C@@H](CC(C)C)C(=O)N1CCC[C@H]1C(=O)N[C@@H](CCCNC(=N)N)C(=O)N1CCC[C@H]1C(=O)N[C@@H](CCCNC(=N)N)C(=O)N1CCC[C@H]1C(=O)N[C@@H](CCCNC(=N)N)C(=O)N1CCC[C@H]1C(=O)N[C@@H](CC(C)C)C(=O)N1CCC[C@H]1C(=O)N[C@@H](Cc1ccccc1)C(=O)N1CCC[C@H]1C(=O)N[C@@H](CCCNC(=N)N)C(=O)N1CCC[C@H]1C(=O)NCC(=O)N1CCC[C@H]1C(=O)N[C@@H](CCCNC(=N)N)C(=O)N1CCC[C@H]1C(=O)N[C@H](C(=O)N1CCC[C@H]1C(=O)N[C@@H](CCCNC(=N)N)C(=O)N1CCC[C@H]1C(=O)N[C@@H](CC(C)C)C(=O)N1CCC[C@H]1C(=O)N[C@@H](Cc1ccccc1)C(=O)N1CCC[C@H]1C(=O)O)[C@@H](C)CC` the MIC was 0.75 µM (alamarBlue; SQ110 LptD defective; overnight).
`CC(C)[C@H](NC(=O)[C@H](CCCCN)NC(=O)CNC(=O)CNC(=O)[C@H](CCC(N)=O)NC(=O)[C@H](CCCCN)NC(=O)CNC(=O)[C@H](CCCNC(=N)N)NC(=O)CNC(=O)[C@@H](N)CCCCN)C(=O)N[C@@H](CCCNC(=N)N)C(=O)N[C@@H](C)C(=O)N[C@@H](CCCCN)C(=O)N[C@@H](C)C(=O)N[C@@H](CCCCN)C(=O)N[C@H](C(=O)N[C@@H](CCCNC(=N)N)C(=O)N[C@@H](CO)C(=O)N[C@@H](CO)C(=O)O)[C@@H](C)O` gave an MIC of over 84 µM (broth microdilution; K12).
For `CC(C)C[C@H](NC(=O)[C@H](CCCNC(=N)N)NC(=O)[C@@H]1CCCN1C(=O)[C@H](Cc1c[nH]cn1)NC(=O)[C@@H]1CCCN1C(=O)[C@@H]1CCCN1C(=O)[C@H](CCCNC(=N)N)NC(=O)[C@@H]1CCCN1C(=O)[C@H](CCC(N)=O)NC(=O)[C@@H]1CCCN1C(=O)[C@H](CCCCN)NC(=O)[C@H](Cc1ccc(O)cc1)NC(=O)[C@@H](NC(=O)[C@@H]1CCCN1C(=O)[C@H](CCCCN)NC(=O)[C@H](CC(N)=O)NC(=O)[C@H](CC(N)=O)NC(=O)CN)C(C)C)C(=O)O`, the MIC was 0.017 ± 0.009 µM (broth microdilution; BW25113 parental, Mueller-Hinton broth; 18 h).

Repeated from above:
The MIC of `CC(C)C[C@@H](N)C(=O)N[C@@H](C(=O)N[C@H](Cc1c[nH]c2ccccc12)C(=O)N[C@H](CCCCN)C(=O)N[C@H](CC(C)C)C(=O)N[C@H](Cc1c[nH]c2ccccc12)C(=O)N[C@H](Cc1c[nH]c2ccccc12)C(=O)N[C@H](CCCNC(=N)N)C(=O)N[C@H](CC(C)C)C(=O)N[C@H](CCCNC(=N)N)C(=O)N[C@H](Cc1c[nH]c2ccccc12)C(=O)N[C@H](CC(C)C)C(=O)N[C@H](CCCCN)C(N)=O)C(C)C` is reported as 50 µg/mL (ATCC 25922; 1 h, non-dividing cells in PBS).
`CC(C)C[C@H](N)C(=O)N[C@@H](CS)C(=O)N1CCC[C@H]1C(=O)N[C@@H](Cc1c[nH]cn1)C(=O)N[C@@H](CCCNC(=N)N)C(=O)N[C@@H](CS)C(=O)O` has an MIC of 25 µg/mL (broth microdilution; MTCC 443).
For `CC[C@H](C)[C@H](NC(=O)[C@@H]1CCCN1C(=O)[C@H](CCCNC(=N)N)NC(=O)[C@@H]1CCCN1C(=O)[C@@H]1CCCN1C(=O)[C@@H](NC(=O)[C@@H]1CCCN1C(=O)[C@H](CCCNC(=N)N)NC(=O)[C@@H]1CCCN1C(=O)[C@H](CC(C)C)NC(=O)[C@H](Cc1ccc(O)cc1)NC(=O)[C@H](CO)NC(=O)CNC(=O)[C@H](CCCCN)NC(=O)[C@H](CC(=O)O)NC(=O)[C@@H](N)C(C)C)[C@@H](C)O)C(=O)N[C@@H](Cc1ccc(O)cc1)C(=O)N[C@@H](CC(N)=O)C(=O)N[C@@H](CCCNC(=N)N)C(=O)N[C@@H](CC(N)=O)C(=O)O`, the MIC was 2.4 ± 0.499 µM (JW0368 ΔsbmA; 18 h, 12.5% Mueller-Hinton broth).
